{"data": "Assay results gathered from unrelated publications", "note": "Parts stem from different laboratories: compare values within a part only."}
{"data": "Sample 1", "target": "Fragile X messenger ribonucleoprotein 1, C-terminal low-complexity region (Fmr1, Mus musculus, UniProt P35922)", "technique": "RNA Bind-n-Seq", "form": "RNA", "medium": "in vitro", "concentration": "200 nM", "setting": "whole 134-nt RNA, ends assumed", "added": "150 mM LiCl", "reference": "input library", "direction": "higher = stronger binding", "each molecule": "7-deaza-guanosine replaces G"}
{"Sequence": "GGGAGUUCUACAGUCCGACGAUCCAAGUCCUGUGCUACACAUCGUAUGUACCGAAUCGGGGCCCGGGCCCGGGGCCCGGAAAGUAUUAUGUUACGCCGUUCGGAUCUGCACUUUGGAAUUCUCGGGUGUCAAGG", "log2 enrichment": -1.79}
{"Sequence": "GGGAGUUCUACAGUCCGACGAUCUGGGAGGUGGAUUUUGUUUAUUUUCUUAGCUCAUUUCCAGGGGUGGGAAUUUUUUUUUAAUAUGUGUCAUGAAUAAAGUUGUUUUUGAAAUGGAAUUCUCGGGUGUCAAGG", "log2 enrichment": -0.438}
{"Sequence": "GGGAGUUCUACAGUCCGACGAUCAGUCCUGUGCUACACAUCGUAUGUACCGAAUCGGGGAAAAGGGGAAAAGGGAAAAGGAAAGUAUUAUGUUACGCCGUUCGGAUCUGCACUUGGAAUUCUCGGGUGUCAAGG", "log2 enrichment": -0.921}
{"data": "Sample 2", "target": "Hepatocyte nuclear factor 3-beta, forkhead domain (FOXA2, Homo sapiens, UniProt Q9Y261, residues 142-269)", "technique": "protein-binding microarray", "form": "double-stranded DNA, one strand shown", "medium": "in vitro", "concentration": "not given", "setting": "k-mer, scored over probes, only values ≥0.25", "direction": "higher = stronger binding", "Residues (chain)": "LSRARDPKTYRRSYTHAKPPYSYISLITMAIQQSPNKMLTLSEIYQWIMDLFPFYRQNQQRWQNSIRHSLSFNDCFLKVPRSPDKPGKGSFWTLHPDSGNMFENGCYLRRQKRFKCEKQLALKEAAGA"}
{"Sequence": "ATGCTATA", "E-score": 0.256}
{"Sequence": "ATAAAGTG", "E-score": 0.307}
{"Sequence": "GTATGTGA", "E-score": 0.273}
{"Sequence": "TACGATAA", "E-score": 0.295}
{"data": "Sample 3", "target": "Sal-like protein 4, full length isoform B (SALL4, Homo sapiens, UniProt Q9UJQ4-2, residues 1-616)", "technique": "universal PBM", "form": "double-stranded DNA, one strand shown", "medium": "in vitro", "concentration": "not given", "setting": "8-mer, flanks averaged, mean of replicates", "direction": "higher = stronger binding"}
{"Sequence": "GCTCCTCA", "E-score": -0.31}
{"Sequence": "ATTAGACA", "E-score": 0.268}
{"Sequence": "AATGAAAG", "E-score": 0.198}
{"Sequence": "CCGCTGCC", "E-score": -0.234}
{"Sequence": "AGAGGCAC", "E-score": -0.139}
{"data": "Mixed results"}
{"Substance": "PhoQ, residues 284 288 289 292 302 303 TLSLKA", "target": "PhoP, residues 12 14 15 18 19 TPWLV (Escherichia coli, UniProt P23836)", "assay": "Sort-seq, item: YFP reporter", "system": "E. coli", "conditions": "PhoQ-PhoP variant library, added: 10 µM Mg2+", "how to read": "reference: high Mg2+ state, higher = stronger signaling", "measurement": "fold induction", "result": 6.12}
{"note": "Excerpt of the above (sample 3):"}
{"Sequence": "CCGCTGCC", "E-score": -0.234}
